# Experimental data collected from several papers.
# Parts stem from different laboratories: compare values within a part only. Positions count from the first letter of the parent shown.

# Block 1 — technique: protein binding microarray; form: double-stranded DNA, one strand shown; sample: in vitro; concentration: not given; baseline: not given; reading: higher = stronger binding
# Target: Histone acetyltransferase KAT6A, winged helix 1, GST fusion (KAT6A, Homo sapiens, UniProt Q92794, residues 1-85)
# Setting: 8-mer, flanks averaged, mean of 2 arrays, mostly near background
# Residues (chain): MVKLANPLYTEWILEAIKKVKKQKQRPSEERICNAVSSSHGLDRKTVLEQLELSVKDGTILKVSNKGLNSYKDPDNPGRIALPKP
Oligonucleotide,E-score
CACTCAAC,-0.139
AGGCCGAA,-0.015
CAGCATGG,-0.108
ACCTTAGC,-0.0351
AGTCTACA,-0.137
AAATGAGC,-0.225
GGGACTAC,0.0399
CTGCTCAC,-0.171
CAGTGATA,-0.19
ACTGTCTA,-0.141
GCTCAAGA,-0.0721
CAAGCGGG,0.276
ACCGTCGA,0.0515
TCCCAAGA,-0.216
CCATCAGG,-0.0134
CCGTGAAG,0.287
TGGAGCCA,-0.186
ACTGGTAC,-0.0595
CGACCCTA,-0.0806
GAGACGTA,-0.133

# Block 2 — target: CCNA1, cyclin fold, Cln2 fusion (human); technique: yeast growth competition, sequencing; sample: yeast; setting: weak parent motif; baseline: not given; reading: higher = stronger binding
# Parent: ORC1 docking peptide (human); PRARKRLELGNLG
Change,normalised enrichment score
A3C,0.726
K5Y,0.0818
L7T,-0.0816
L12G,0.159
P1A,0.692
R4F,0.158
N11A,0.297
L7F,0.0144
L9P,0.237
R4G,0.345
P1V,0.291
K5T,0.3
P1L,0.467
A3P,0.256
R2K,0.504
G13K,0.337
A3L,-0.17
A3F,0.303
L9N,0.318
P1T,0.301
R4Q,0.189
R4M,0.451
G13N,0.477
L7H,0.238
G10H,-0.0424

# Block 3 — technique: RNA Bind-n-Seq; form: RNA; sample: in vitro; concentration: 365 nM; baseline: no-protein control; reading: higher = stronger binding
# Target: RNA binding protein fox-1 homolog 2, RRM domain, GST-SBP tag (RBFOX2, Homo sapiens, UniProt O43251-10, residues 100-194)
# Setting: natural RNA segment, single round, ends assumed
# Shared flanks, not repeated: GGGAGUUCUACAGUCCGACGAUC … UGGAAUUCUCGGGUGCCAA
# Residues (chain): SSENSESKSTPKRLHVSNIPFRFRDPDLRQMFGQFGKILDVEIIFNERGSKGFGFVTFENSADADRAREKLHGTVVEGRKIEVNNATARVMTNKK
Oligonucleotide,RBNS enrichment (R)
GUGGAGCAACAGCUUUAGAGUGACUCAACUCCUAUCACCAGGAGAAACAAUUCUGAAAACUGGUCCCUGGUGGUCAGCAGGAAAUGAUCUUUAUUUUUAUGCUAACAACC,0.276
UCCCUUCCACCUCCCUGAAAUGUACGUGGAGCCACUCAGAACACAACUGUAUCACUGAGGUAACUCCUCAGUGUUGGGUCCAUUACAGCCUUGGAGCAAAGUUGACCACC,0.207
GCUUUCCCAAGCUCACCCCACCUCCAUGACUAGAAGCUUCUGCAAAUCUGCUUGGUAAAUGUCUCCUGGGAAAGGCAGAACCCAUAACUUAAAGACACGCACAGUCCCUU,0.365
UAUUUAGGCUUAUCCUGUUUUGAAAUGAUGGUAGUCAUCUUUCUUACUGCUACUUUCAUGUUGCUUUCUAGAAAACAGCAUUUCAUUCCAAAAUAACUAGGAUCUGCAUU,0.382
GGUUCUUCCUAGGGUGGCCUUGGCUCCCUGAAGGAAUCUGAAAUGCUGACCCUGUCACAACCUCCCAGCACAGCUUUGGAAUGAGACAUCAGCCUGGCCUCCAGCAGAGC,0.223
UAUUGACCGAGUAUUGUUGAGUAUUGCUAGAGUAGCUAGUUAUCUGGUGAGACUGCUAAUUGAUUCAGUGUAUGAUAGUUCACACGGGAUGAGAACCUUGGCCUUUAUCA,6.48
AUGUGCUUUAACCACUGCUGCAAAAGAGACAAGUCUGCAUUUAUUUGUGCAGGAAACCAGCCAUUUAAUUGUUCUAGAGUUUUAGCAUUUAAAAAUCGUAUGAAAGUCUA,0.341
UGUGUCUAAGAUGAAAUAAAAUGUAACUUUUGCUGCAGUGGUAUGUUUCUUUUGGAGUACAACAUGUAUGCCGUUUACAACACACACAUGGUAACGGGGAUCACAUGCUC,0.297

# Block 4 — technique: RNA Bind-n-Seq; form: RNA; sample: in vitro; concentration: 1 µM; setting: whole 134-nt RNA, ends assumed; added: 150 mM KCl; baseline: input library; reading: higher = stronger binding
# Target: Ras GTPase-activating protein-binding protein 1, RRM domain (G3BP1, Homo sapiens, UniProt Q13283)
# Sequence of UniProt Q13283 (whole entry, looked up): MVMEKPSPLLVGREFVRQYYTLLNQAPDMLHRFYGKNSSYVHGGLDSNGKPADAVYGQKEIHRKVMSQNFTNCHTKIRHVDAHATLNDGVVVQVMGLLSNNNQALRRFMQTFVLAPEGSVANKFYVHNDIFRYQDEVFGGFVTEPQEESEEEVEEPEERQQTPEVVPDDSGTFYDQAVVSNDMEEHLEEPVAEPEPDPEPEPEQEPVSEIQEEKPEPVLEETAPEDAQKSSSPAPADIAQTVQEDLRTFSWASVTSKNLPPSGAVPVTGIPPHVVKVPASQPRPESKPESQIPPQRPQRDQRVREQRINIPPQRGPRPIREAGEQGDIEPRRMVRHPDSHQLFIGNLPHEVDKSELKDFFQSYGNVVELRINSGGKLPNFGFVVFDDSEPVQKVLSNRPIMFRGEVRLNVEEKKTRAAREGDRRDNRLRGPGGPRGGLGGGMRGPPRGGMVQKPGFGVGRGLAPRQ
# Shared flanks, not repeated: GGGAGUUCUACAGUCCGACGAUC … UGGAAUUCUCGGGUGUCAAGG
Oligonucleotide,log2 enrichment
AGUCCUGUGCUACACAUCGUAUGUACCGAAUCGGGAGGGUUUUUUUGGGAAAAAGGGAAAGUAUUAUGUUACGCCGUUCGGAUCUGCACU,0.403
CCUCAAGUCCUGUGCUACACAUCGUAUGUACCGAAUCGGAAAGGAGGUUUGGAAAGUAUUAUGUUACGCCGUUCGGAUCUGCACUUCCAG,-0.255
CCUGUGCUACACAUCGUAUGUACCGAAUCGGGGAAAAAAAGGGGUUUUUGGGGAAAGGGGAAAGUAUUAUGUUACGCCGUUCGGAUCUGC,0.763
CACAGACAACACGCACCCACACAGACACAGAGGGGAGGGGUUGGGAUGGGGACAGGGUGCACAGCAGGGCGGGGUAGGACCCCAGCCCCU,0.136
CAAGUCCUGUGCUACACAUCGUAUGUACCGAAUCGGGGAGGGGUUUGGGGUGGGGAAAGUAUUAUGUUACGCCGUUCGGAUCUGCACUUC,0.929
CUCAAGUCCUGUGCUACACAUCGUAUGUACCGAAUCGGUUUUUGGAGGUUUGGAAAGUAUUAUGUUACGCCGUUCGGAUCUGCACUUCCA,-0.285
UCAAGUCCUGUGCUACACAUCGUAUGUACCGAAUCGGAAAGGGGAAAGGGAAAGGAAAGUAUUAUGUUACGCCGUUCGGAUCUGCACUUC,-0.197
UCCUCAAGUCCUGUGCUACACAUCGUAUGUACCGAAUCGGGUGGUGGGUGGAAAGUAUUAUGUUACGCCGUUCGGAUCUGCACUUCCAGC,-0.124
UGGGGUAGACCAGUUCCAUGGCACUGAAUAUGUGUGCUGCCCUCAGACAAAGAUUAUUGGAUCUGUGUCAAAAGAAGAGGAAGAGGAAGA,-0.12

# A few entries again (block 1):
Oligonucleotide,E-score
AGGCCGAA,-0.015
ACCGTCGA,0.0515
CAGCATGG,-0.108
TCCCAAGA,-0.216
GAGACGTA,-0.133
GGGACTAC,0.0399
CAGTGATA,-0.19
CGACCCTA,-0.0806
CACTCAAC,-0.139
ACTGGTAC,-0.0595
